Assay results of several laboratories.
Lines come from different studies, so protocols differ. Several values in a cell are separate wells, animals, samples, runs or records. Numbers after ± are the reported error.

CCCC[C@H](NC(=O)CCCCCCCNC(=O)CN1CCN(CC(=O)O)CCN(CC(=O)O)CC1)C(=O)N[C@H]1CC(=O)NCCCC[C@@H](C(N)=O)NC(=O)[C@H](Cc2c[nH]c3ccccc23)NC(=O)[C@H](CCCNC(=N)N)NC(=O)[C@@H](Cc2ccccc2)NC(=O)[C@H](Cc2c[nH]cn2)NC1=O [technetium-99m labelled]  tissue uptake (C57 mouse, heart; intravenous, 0.037 MBq, 0.5 h): 0.81 ± 0.19 %ID/g
C=CC(=O)Nc1cccc(Cn2ncc3cnc(Nc4cnn(CCOC)c4)nc32)c1  percent of control (DDR2 human; binding, KINOMEscan; 100 nM; lower = stronger binding): 80%
C=C1CC[C@H](OCCCNC(=O)CCOCCOCCOCCOCCOCCOCCOCCOCCOCCOCCOCCOCCOCCOCCOCCOCCOCCOCCOCCOCCOCCOCCOCCOCCOCCOCCOCCOCCOCCOCCOCCOCCOCCOCCOCCOCCNC(=O)CCN2C(=O)CC(SC[C@H](NC(=O)[C@H](Cc3ccccc3)NC(=O)[C@H](CC(N)=O)NC(=O)[C@H](Cc3c[nH]cn3)NC(=O)[C@@H](NC(=O)[C@H](CC(=O)O)NC(=O)[C@H](CCC(N)=O)NC(=O)[C@H](CC(C)C)NC(=O)[C@H](CCCCN)NC(=O)[C@H](CCCCN)NC(=O)[C@H](CCCNC(=N)N)NC(=O)[C@H](CC(C)C)NC(=O)[C@H](Cc3c[nH]c4ccccc34)NC(=O)[C@H](CCC(=O)O)NC(=O)[C@@H](NC(=O)[C@H](CCCNC(=N)N)NC(=O)[C@H](CCC(=O)O)NC(=O)[C@H](CCSC)NC(=O)[C@H](CO)NC(=O)[C@H](CC(N)=O)NC(=O)[C@H](CC(C)C)NC(=O)[C@H](Cc3c[nH]cn3)NC(=O)[C@H](CCCCN)NC(=O)CNC(=O)[C@H](CC(C)C)NC(=O)[C@H](CC(N)=O)NC(=O)[C@H](Cc3c[nH]cn3)NC(=O)[C@H](CCSC)NC(=O)[C@H](CC(C)C)NC(=O)[C@H](CCC(N)=O)NC(=O)[C@@H](NC(=O)[C@H](CCC(=O)O)NC(=O)[C@H](CO)NC(=O)[C@@H](NC(=O)[C@@H](N)CO)C(C)C)[C@@H](C)CC)C(C)C)C(C)C)C(=O)O)C2=O)C/C1=C/C=C1\CCC[C@]2(C)[C@@H]([C@H](C)CCCC(C)(C)O)CC[C@@H]12 (stereo partly drawn)  bioavailability (male cynomolgus monkey, plasma; subcutaneous, 0.07 mg/kg, single dose): 53.5%
O=C(Nc1cnccc1-c1ccc([18F])cc1)c1ccnc(NC(=O)C2CC2)c1  mean SUV (ex vivo gamma counting; FVB/NJ mice, both sexes, right kidney; intravenous, 120 min): 0.49
Cc1ncsc1-c1ccc(C(C)NC(=O)C2CC(O)CN2C(=O)C(NC(=O)CCCCCCCCCCN2CCCC(Nc3ncc(Cl)c(Nc4ccccc4S(=O)(=O)C(C)C)n3)C2)C(C)(C)C)cc1 (stereo not drawn)  log2 fold change (22Rv1; RNA-seq, refers to: TRAF3IP3 mRNA; concentration not given; relative to: DMSO): -2.28
COC1CN([C@H]2CC[C@H]([C@@]3(C)Oc4c(Cl)cc(C(=O)NCc5c(SC)cc(C)[nH]c5=O)c(C)c4O3)CC2)C1  log2 fold change (RNA-seq, refers to: STARD10 mouse homolog; mouse, HT-1376 xenograft, whole blood; dose not given; relative to: vehicle): 0.288
CCCC[C@H](NC(=O)COCCOCCNC(=O)CN1CCN(CC(=O)O)CCN(CC(=O)O)CC1)C(=O)N[C@H]1CC(=O)NCCCC[C@@H](C(N)=O)NC(=O)[C@H](Cc2c[nH]c3ccccc23)NC(=O)[C@H](CCCNC(=N)N)NC(=O)[C@@H](Cc2ccccc2)NC(=O)[C@H](Cc2c[nH]cn2)NC1=O [technetium-99m labelled]  tissue uptake (C57 mouse, lung; intravenous, 0.037 MBq, 4 h): 0.12 ± 0.07 %ID/g
CC(C)C[C@@H](NC(=O)[C@@H](CC(C)C)NC(=O)[C@@H](CC(=O)O)NC(=O)[C@@H](CC(C)C)NC(=O)[C@@H](CC(C)C)NC(=O)[C@@H](CC(C)C)NC(=O)[C@H](NC(=O)[C@@H](CC(=O)O)NC(=O)[C@H](NC(=O)[C@H]1CCCN1C(=O)[C@@H](Cc1ccccc1)NC(=O)[C@@H](CC(C)C)NC(=O)[C@@H](CC(C)C)NC(=O)[C@@H](CC(=O)O)NC(=O)[C@@H](CC(C)C)NC(=O)[C@@H](Cc1ccc(O)cc1)NC(=O)[C@@H](C)NC(=O)[C@@H](CCCNC(=N)N)NC(=O)[C@@H](Cc1c[nH]c2ccccc12)NC(=O)[C@H]1CCCN1C(=O)[C@@H](CC(N)=O)NC(=O)[C@@H](CCC(N)=O)NC(=O)[C@@H](CC(=O)O)NC(=O)[C@@H](CC(=O)O)NC(=O)[C@@H](CSC1CC(=O)N(CCNC(=O)CN2CCN(CC(=O)O)CCN(CC(=O)O)CC2)C1=O)NC(=O)[C@@H](C)N)[C@H](C)O)[C@H](C)O)C(=O)N[C@H](Cc1c[nH]c2ccccc12)C(=O)O (stereo partly drawn) [fluorine-18 labelled]  tissue uptake (male nude mice, PC-3 xenograft, tumor; intravenous, 4 h): 4.02 %ID/g
C[C@@H](O)[C@@H]1NC(=O)[C@H](CCCCN)NC(=O)[C@@H](Cc2c[nH]c3ccccc23)NC(=O)[C@H](Cc2ccc(O)cc2)NC(=O)[C@@H](NC(=O)[C@@H](Cc2ccccc2)NC(=O)CN2CCN(CC(=O)O)CCN(CC(=O)O)CCN(CC(=O)O)CC2)CSSC[C@@H](C(=O)N[C@H](CO)[C@@H](C)O)NC1=O [gallium-67 labelled]  tissue uptake (male ICR mouse, stomach; intravenous, 11 kBq, 1 h, radiolabelled): 4.37 ± 0.97 %ID
CC(C)C[C@H](NC(=O)[C@@H](CCCCNC(=O)CCCCCCCCCCNC(=O)CN1CCN(CC(=O)O)CCN(CC(=O)O)CCN(CC(=O)O)CC1)NC(=O)[C@H](Cc1ccc(O)cc1)NC(=O)[C@H](CO)NC(=O)[C@H](Cc1c[nH]c2ccccc12)NC(=O)[C@H](Cc1cnc[nH]1)NC(=O)[C@@H]1CCC(=O)N1)C(=O)N[C@@H](CCCN=C(N)N)C(=O)N1CCC[C@H]1C(=O)NCC(N)=O [indium-111 labelled]  tissue uptake (athymic nude mouse, female, intestines; intravenous, 0.037 MBq, 0.5 h): 2.13 ± 0.18 %ID
CC(C)C[C@H](NC(=O)[C@@H](CCCCNC(=O)[C@@H](Cc1ccccc1)NC(=O)CCCCCNC(=O)CN1CCN(CC(=O)O)CCN(CC(=O)O)CCN(CC(=O)O)CC1)NC(=O)[C@H](Cc1ccc(O)cc1)NC(=O)[C@H](CO)NC(=O)[C@H](Cc1c[nH]c2ccccc12)NC(=O)[C@H](Cc1c[nH]cn1)NC(=O)[C@@H]1CCC(=O)N1)C(=O)N[C@@H](CCCNC(=N)N)C(=O)N1CCC[C@H]1C(=O)NCC(N)=O [indium-111 labelled]  tissue uptake (female athymic nude mice, pancreas; intravenous, 0.037 MBq, 0.5 h): 0.29 ± 0.14 %ID/g
CC(C)C[C@H](NC(=O)[C@H](Cc1ccc(O)cc1)NC(=O)[C@@H](CCCNC(=N)N)NC(=O)[C@@H](CO)NC(=O)[C@H](Cc1ccccc1)NC(=O)[C@H](CC1CCCCC1)NC(=O)[C@H](CC(=O)O)NC(=O)CN1CCN(CC(=O)O)CCN(CC(=O)O)CCN(CC(=O)O)CC1)C(=O)N[C@@H](Cc1c[nH]c2ccccc12)C(=O)N[C@@H](CO)C(=O)O [copper-64 labelled]  activity concentration (human, heart; concentration not given, 24 h): 366 Bq/mL and 297 Bq/mL and 506 Bq/mL and 361 Bq/mL and 535 Bq/mL and 459 Bq/mL

For quick reference, copied from above:
CC(C)C[C@H](NC(=O)[C@@H](CCCCNC(=O)[C@@H](Cc1ccccc1)NC(=O)CCCCCNC(=O)CN1CCN(CC(=O)O)CCN(CC(=O)O)CCN(CC(=O)O)CC1)NC(=O)[C@H](Cc1ccc(O)cc1)NC(=O)[C@H](CO)NC(=O)[C@H](Cc1c[nH]c2ccccc12)NC(=O)[C@H](Cc1c[nH]cn1)NC(=O)[C@@H]1CCC(=O)N1)C(=O)N[C@@H](CCCNC(=N)N)C(=O)N1CCC[C@H]1C(=O)NCC(N)=O [indium-111 labelled]  tissue uptake (female athymic nude mice, pancreas; intravenous, 0.037 MBq, 0.5 h): 0.29 ± 0.14 %ID/g
